Assay results of several laboratories.
Protocols differ between the studies behind these lines. Values joined by “and” are separate records of one study, mostly repeats; a detail may differ. Numbers after ± are the reported error.
Organism: Zaire ebolavirus

Structure (SMILES)	test	system	conditions	measurement	value
CCN(CC)Cc1cc(Nc2ccnc3cc(I)ccc23)ccc1O	viral replication		GFP reporter virus	IC50	0.58 µM and 0.64 µM
CC[C@H](C)[C@H](NC(=O)[C@@H](NC(=O)[C@H](CCC(N)=O)NC(=O)[C@@H](N)CO)C(C)C)C(=O)N[C@@H](CO)C(=O)N[C@@H](CC(N)=O)C(=O)N1CCC[C@H]1C(=O)N[C@@H](Cc1ccc(O)cc1)C(=O)N[C@@H](Cc1ccc(O)cc1)C(=O)N1CCC[C@H]1C(=O)N[C@@H](Cc1ccccc1)C(=O)N[C@@H](Cc1ccc(O)cc1)C(=O)N[C@@H](Cc1ccc(O)cc1)C(=O)N[C@@H](CO)C(=O)O		wild type		IC50	26.6 µM
COc1cc2c3cc1Oc1c(OC)c(OC)cc4c1[C@@H](Cc1ccc(O)c(c1)Oc1ccc(cc1)C[C@@H]3N(C)CC2)N(C)CC4	pseudovirus entry	HEK-293T	10 µM	inhibition	> 80%
CC(C)[C@H](NC(=O)[C@H](Cc1ccccc1)NC(=O)[C@H](Cc1ccccc1)NC(=O)[C@H](CC(=O)O)NC(=O)[C@H](CC(=O)O)NC(=O)CNC(=O)[C@H](CCCCN)NC(=O)[C@H](CCCCN)NC(=O)[C@@H](N)Cc1c[nH]cn1)C(=O)N[C@@H](Cc1ccc(O)cc1)C(=O)N[C@@H](C)C(=O)N[C@@H](CC(=O)O)C(=O)N[C@@H](Cc1ccc(O)cc1)C(=O)O		wild type		IC50	16.7 µM
CCOP(=O)(COCCn1cnc(C#N)c1C#N)OCC	viral replication, inhibitor	Vero	72 h	IC50	37 µg/mL
Cc1cc(Cc2cc(C)cc(C(C)(C)C)c2O)c(O)c(Cc2cc(C)cc(C(C)(C)C)c2O)c1	viral replication, inhibitor	HeLa		IC50	1.91 µM
N#Cc1ncn(C2OC(CO)C(O)C2O)c1C#N (stereo not shown)	viral replication, inhibitor	Vero	72 h	IC50	18 µg/mL
CN1CCN(C(=O)N[C@@H](Cc2ccccc2)C(=O)N[C@H](/C=C/S(=O)(=O)c2ccccc2)CCc2ccccc2)CC1	pseudovirus entry	HEK293T	EBOV	IC50	0.00087 ± 6e-05 µM
CCOP(=O)(CCOCn1cnc(C#N)c1C#N)OCC	viral replication, inhibitor	Vero	72 h	IC50	19 µg/mL
[N-]=[N+]=N[C@]1(CO)O[C@@H](n2ccc(N)nc2=O)C(F)(F)[C@@H]1O	viral replication	NCI-H358		EC50	0.33 ± 0.03 µM

Some of these lines once more:
Structure (SMILES)	test	system	conditions	measurement	value
CN1CCN(C(=O)N[C@@H](Cc2ccccc2)C(=O)N[C@H](/C=C/S(=O)(=O)c2ccccc2)CCc2ccccc2)CC1	pseudovirus entry	HEK293T	EBOV	IC50	0.00087 ± 6e-05 µM
